Assay results of several laboratories.
Parts stem from different laboratories: compare values within a part only. Positions count from the first letter of the parent shown.

Series 1
Target: Histone acetyltransferase KAT6A, winged helix 1, GST fusion (KAT6A, Homo sapiens, UniProt Q92794, residues 1-85)
Method: protein binding microarray
Form: double-stranded DNA, one strand shown
Matrix: in vitro
Tested at: not given
Notes: 8-mer, flanks averaged, mean of 2 arrays, mostly near background
Relative to: not given
Direction: higher = stronger binding
Target sequence (chain): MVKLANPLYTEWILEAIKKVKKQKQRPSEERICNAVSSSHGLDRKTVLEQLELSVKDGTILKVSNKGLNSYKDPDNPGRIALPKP
Oligonucleotide	E-score
CTTAGTAC	0.0102
TCGGCGAA	0.289
GGCAAGAC	0.144
ATGCGGGC	0.173
GACTACAC	-0.0543
ACAAGTGT	-0.108
CAGGAGTC	-0.11
AGGCAGCC	-0.102
AAGCGCGT	0.39
ACCCGTTA	0.315
CAATCCAA	-0.141
AGCTCGGA	-0.0682
AAGTTCCT	-0.179
GGCCTTAA	-0.0754
TGACTGAA	-0.103
ATGCGCCC	0.324
CACAGAAC	-0.0477
GAGCCTGC	-0.00283
CGTTGGCA	0.0362
CAAAGCTG	-0.0345
CGGTAGTA	0.122
CATACTCC	-0.00153
ACTGTTAG	-0.0148
CACCGCTC	0.169
GAGGGCGC	0.241

Series 2
Target: Sal-like protein 4, full length isoform B (SALL4, Homo sapiens, UniProt Q9UJQ4-2, residues 1-616)
Method: universal PBM
Form: double-stranded DNA, one strand shown
Matrix: in vitro
Tested at: not given
Notes: 8-mer, flanks averaged, mean of replicates
Direction: higher = stronger binding
Oligonucleotide	E-score
TCTGTCCA	0.0727
AACCTGAT	0.126
CGCCTCAG	-0.225
AAGTAGCC	-0.225
CACACGTG	-0.148
GGCACGCC	-0.466
CGTACGGA	-0.0821
CTTGCTAA	-0.0194
ATTACCAG	-0.0466
ATTAGAAT	0.255
CCGTGTCG	-0.283
TCATGAGA	0.00325
GCTTCTAA	-0.0831
AGCTTGTG	-0.0896
GAGGACGC	-0.169
CACCCGTC	-0.303
GGCGCTAC	-0.277
ACAATAGC	0.157
CCCGTCAC	-0.222
GCAAGGGC	-0.278
ATGACTAC	0.139
CATTCACG	-0.0241
AAAACGGG	-0.0285
GCGCCCGA	-0.313
CATAATCA	0.37

Series 3
Target: RNA binding protein fox-1 homolog 2, RRM domain, GST-SBP tag (RBFOX2, Homo sapiens, UniProt O43251-10, residues 100-194)
Method: RNA Bind-n-Seq
Form: RNA
Matrix: in vitro
Tested at: 365 nM
Notes: natural RNA segment, single round, ends assumed
Relative to: no-protein control
Direction: higher = stronger binding
Constant ends, left off below: GGGAGUUCUACAGUCCGACGAUC … UGGAAUUCUCGGGUGCCAA
Construct (chain): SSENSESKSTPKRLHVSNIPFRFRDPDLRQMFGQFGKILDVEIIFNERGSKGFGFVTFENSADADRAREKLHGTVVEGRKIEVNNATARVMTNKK
Oligonucleotide	RBNS enrichment (R)
UAUAUUAAAAAAAAAGUUUUGUAUGUUUUUAUUACUUUAAUUAUUGUUAUAAAAAGCCUGCCAUUUUUAAUAUGUGGUUUGGGGAAUUUUGUUUGUUUUUCCUGUUUGGG	6.35
AUUGUUUUUGAGACAAACAUUUUUAUAAUUCUAAUUUGGGUUAAUAAAGAUUUUAAAUAUUUCUUGGUUUACUUUUGUAAUUAUAUACACAACAAAUGUAUUAAUAACUA	0.801
CUGUUCGGCCUUUGGGUGUGUGGUGGAUUCUCCCUGGGCCUCAGUGUGCCCAUCUGUAAAGGGGCAGCUGACAGUUUGUGGCAUCUUGCCAAGGGUCCCUGUGUGUGUGU	5.03
ACACCAGGAGCUGCCACUGCAUGUCCCAACCAGACUGUGUCUGUCUGUGUCUGCAUGUAAGAGUGAGGGAGGGAAGGAAGGAACUACAAGAGAGUCGGAGAUGAUGCAGC	7.29
ACUCAGUCUGCGCCUCUAUAGGUUCUUGUAGAGCCUUGGUUGUUUCUGGCCUCUGCCUGGGACAGUAAAGGAUGGAGGAUCAGGCCUGGAGCCCCAGCCCCACCUUAGCC	0.318
GCAUAAGACGGGGAGGUUCUUCUUAUUUUGUGAGCCGGUUGCCCUGGAAACGGAUAACAAAGGGCAGCCUUCCACUUCUGGUAUAAUGGGGGAGCCUCUUUUCUCAGGCU	0.402
CCCAAGCACACAUGUGUGAAGGGCUAUAGCCAAAGUAUUUUUACUAGCCUGUAUGAAAUCACUAGUCCUUAUUUUUAAAGGUCUAUGGUUUCUUGGAAGUAGUUUGAUUG	0.417
CAUCCUGGGAGCGCCAUAGUUCAUCUUUCACCCACACGCCUUCCCUCCAUUCCUGAGCAGGACUAGUCCGUCCCAGAGGGCCACUGCUAGACUUCCUGUUAGGGGCAAUG	0.311
GCAGGAGAAUUGCUUGAGCCCGGGAGGCAGAGGCUGCAGUGAACCAAGAUCAUGCCACUGCACUCCAGCCUGGGCAACACAGCGAGACUCCGUCUCAAAAAGAAAAAGUU	0.501
GUCUCUAGAGGAUACUCAUCUGGAGUCUCUGAAGACUUGACCCAUAUUUCCAAGACCCUACAACUCCAGCCUUGCCCUAUGACAUCAUCAAGGAUCUCCACAGAGGUGAC	0.311
UCUAAAACCCACCUUUGUCUGAGGUGCCGGGAGUAGCCAUGGUACCCCCUUCCUGGGCAUCCGUUCGGGUUUUCUAACCGUUGUCUUGUUCUGGGGUGAGCGGGGAGCGC	0.543
UGCUCCCGCACUCUGAGAAGUGGGUCAGGUGAUGAUCCCUGCACUUGAUUGAGAUCAGAAUCCAUCAGGGUCUUAGACUCUGCCCCCCCUCACCCCACUCUCUUCCCAUG	0.34

Series 4
Target: CCNB3, cyclin fold, Cln2 fusion (human)
Method: yeast growth competition, sequencing
Matrix: yeast
Notes: weak parent motif
Relative to: not given
Direction: higher = stronger binding
Starting sequence: INSM1 docking peptide (human); PKAIRKLHFEDEV; partner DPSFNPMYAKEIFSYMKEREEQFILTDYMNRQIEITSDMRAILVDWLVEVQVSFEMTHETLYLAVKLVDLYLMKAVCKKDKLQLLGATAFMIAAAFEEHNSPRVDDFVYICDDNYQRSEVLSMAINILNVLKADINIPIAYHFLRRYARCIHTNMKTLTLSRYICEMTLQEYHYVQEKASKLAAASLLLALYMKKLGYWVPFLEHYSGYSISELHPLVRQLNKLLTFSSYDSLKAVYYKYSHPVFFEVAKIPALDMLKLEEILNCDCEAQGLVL
Change	normalised enrichment score
PKAIVKLHFEDEV [R5V]	-0.184
PKIIRKLHFEDEV [A3I]	0.243
PKAIRKLGFEDEV [H8G]	-0.203
PKAIKKLHFEDEV [R5K]	0.107
PKAIRKLHPEDEV [F9P]	-0.119
PKAIRKLHFEDHV [E12H]	0.796
PKHIRKLHFEDEV [A3H]	0.436
PKAIRKLHFIDEV [E10I]	-0.00588
PKAMRKLHFEDEV [I4M]	0.399
PKAIRKLSFEDEV [H8S]	0.393
PKAIRRLHFEDEV [K6R]	0.0489
PKAIRKLHCEDEV [F9C]	-0.435
PKAIRKLHFADEV [E10A]	0.205
PKSIRKLHFEDEV [A3S]	0.0949
PMAIRKLHFEDEV [K2M]	0.45
PKAIRKLYFEDEV [H8Y]	0.437
PKAIRKLHFEIEV [D11I]	0.527
PDAIRKLHFEDEV [K2D]	0.161
PKAIRKLHFPDEV [E10P]	0.555
PKAIRKLKFEDEV [H8K]	0.566
PKAIRKLHIEDEV [F9I]	-0.382
PKAIRKLHFEGEV [D11G]	0.347
PKAIRKYHFEDEV [L7Y]	-0.0195
PKAIRKLHFESEV [D11S]	0.174
PKYIRKLHFEDEV [A3Y]	0.174

Excerpt of the above (series 4):
Change	normalised enrichment score
PKAIRKLHCEDEV [F9C]	-0.435
PKAIRKLHFADEV [E10A]	0.205
PKSIRKLHFEDEV [A3S]	0.0949
PMAIRKLHFEDEV [K2M]	0.45
PKAIRKLYFEDEV [H8Y]	0.437
PKAIRKLHFEIEV [D11I]	0.527
PDAIRKLHFEDEV [K2D]	0.161
PKAIRKLHFPDEV [E10P]	0.555
PKAIRKLKFEDEV [H8K]	0.566
PKAIRKLHIEDEV [F9I]	-0.382
PKAIRKLHFEGEV [D11G]	0.347
